Assay results of several laboratories.
A part holds a random share of what one study measured. Several values in a cell are separate wells, animals, samples, runs or records.

Set 1
Target: Replicase polyprotein 1ab, nsp12 with nsp7/nsp8 (rep, Severe acute respiratory syndrome coronavirus 2, UniProt P0DTD1)
Effect on: polymerase activity
Organism: SARS-CoV-2
Tested at: 20 µM
Endpoint: inhibition
CCOC(=O)C1=C(N)Oc2ccc(Br)cc2[C@H]1[C@H](C#N)C(=O)OCC: -4.93% and 1.2%
CN=c1nc(-c2ccccc2)n(-c2ccccc2)s1: 0.48%
O=Nc1ccc(O)c2ncccc12: 1.18%
Cc1nc(C#Cc2ccnc(Cl)c2)c(C)n1-c1ccc(OC(F)(F)F)cc1: 0.79%
CCN(CC)C(=S)S: -5.73%
O=C(O)[C@@H](S)[C@@H](S)C(=O)O: 27.7%
CCn1c(N)c(C(=O)NC)c(=O)c2ccc(C#C[C@@](C)(O)COC)nc21: 3.57%
CCC(C)SSc1ncc[nH]1 (stereo not drawn): -1.01%
CCC(=O)OCN1C(=O)C=CC1=O: -2.04%
CO/N=C(\C(=O)N[C@@H]1C(=O)N2C(C(=O)O)=C(CSC(=O)c3ccco3)CS[C@H]12)c1csc(N)n1: 1.88%
O=c1[nH]nc(Sc2ncc([N+](=O)[O-])s2)n1-c1ccc2c(c1)OCCO2: -14.3%
Oc1c(I)cc(I)c(O)c1I: 3.65%
CC(C)(C)c1ccc(S(=O)(=O)/C=C/C#N)cc1: 0.69%
Cc1ccc(S(=O)(=O)/C=C/C#N)cc1: 0.25%
O=C(O)c1ccc(N2C(=O)/C(=C\c3ccc(-c4ccc([N+](=O)[O-])cc4)o3)C=C2c2ccccc2)cc1: 14%
Nc1nnc(Sc2ncc([N+](=O)[O-])s2)s1: -12.2%

Set 2
Target: Sal-like protein 4, full length isoform A (SALL4, Homo sapiens, UniProt Q9UJQ4, residues 1-1053)
Chain of UniProt Q9UJQ4 (whole entry, looked up): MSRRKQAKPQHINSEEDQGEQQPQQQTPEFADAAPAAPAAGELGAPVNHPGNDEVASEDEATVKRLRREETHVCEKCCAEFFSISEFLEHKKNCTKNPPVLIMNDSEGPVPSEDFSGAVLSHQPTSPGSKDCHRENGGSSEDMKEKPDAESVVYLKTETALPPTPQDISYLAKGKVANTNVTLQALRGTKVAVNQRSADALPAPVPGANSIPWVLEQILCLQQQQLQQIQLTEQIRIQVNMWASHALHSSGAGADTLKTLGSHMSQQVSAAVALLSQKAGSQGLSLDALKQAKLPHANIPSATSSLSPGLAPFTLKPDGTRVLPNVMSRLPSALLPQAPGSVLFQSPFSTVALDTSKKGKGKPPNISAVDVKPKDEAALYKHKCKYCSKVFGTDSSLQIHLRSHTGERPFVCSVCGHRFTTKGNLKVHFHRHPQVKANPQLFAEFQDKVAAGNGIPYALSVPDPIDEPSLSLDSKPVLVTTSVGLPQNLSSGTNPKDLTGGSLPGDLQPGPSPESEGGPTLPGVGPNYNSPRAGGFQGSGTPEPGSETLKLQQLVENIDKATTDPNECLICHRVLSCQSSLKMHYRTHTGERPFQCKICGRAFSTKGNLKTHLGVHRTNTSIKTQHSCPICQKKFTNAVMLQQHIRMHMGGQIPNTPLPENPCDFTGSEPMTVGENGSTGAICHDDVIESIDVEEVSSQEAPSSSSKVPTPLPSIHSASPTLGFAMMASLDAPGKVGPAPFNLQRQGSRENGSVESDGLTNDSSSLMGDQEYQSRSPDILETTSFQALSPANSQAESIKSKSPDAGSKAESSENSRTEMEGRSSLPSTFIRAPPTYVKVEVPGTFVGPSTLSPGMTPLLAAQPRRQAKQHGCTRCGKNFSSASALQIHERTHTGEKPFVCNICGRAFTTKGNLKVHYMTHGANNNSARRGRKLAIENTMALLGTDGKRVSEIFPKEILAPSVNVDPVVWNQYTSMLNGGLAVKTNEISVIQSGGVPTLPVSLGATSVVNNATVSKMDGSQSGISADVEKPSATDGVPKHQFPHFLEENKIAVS
Technique: universal PBM
Molecule type: double-stranded DNA, one strand shown
Sample: in vitro
Tested at: 600 nM
Setting: 8-mer, flanks averaged, mean of replicates
Direction: higher = stronger binding
Endpoint: E-score
CCGGTTGA: -0.259
AACTCATC: 0.0165
AATGTAAA: 0.297
GCTCTTAC: -0.109
CGTAGTCC: -0.199
ACACCCAG: -0.257
GACTCCGA: -0.213
GAAGATGA: 0.179

Set 3
Target: Fragile X messenger ribonucleoprotein 1, C-terminal low-complexity region (Fmr1, Mus musculus, UniProt P35922)
Technique: RNA Bind-n-Seq
Molecule type: RNA
Sample: in vitro
Tested at: 200 nM
Setting: whole 134-nt RNA, ends assumed
Added: 150 mM KCl
Relative to: input library
Direction: higher = stronger binding
Endpoint: log2 enrichment
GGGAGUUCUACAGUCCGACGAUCAGUCCUGUGCUACACAUCGUAUGUACCGAAUCGGGGAGGGGUUUUUUUGGGGUGGGGAAAGUAUUAUGUUACGCCGUUCGGAUCUGCACUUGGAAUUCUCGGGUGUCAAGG: 1.14
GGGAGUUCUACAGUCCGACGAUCCUGUGCUACACAUCGUAUGUACCGAAUCAAACCCCCCCAAACCCCCCCAAAUUUUUUUAAAAAAGUAUUAUGUUACGCCGUUCGGAUCUGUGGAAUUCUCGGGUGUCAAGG: -0.232
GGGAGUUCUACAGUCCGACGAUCAGUCCUGUGCUACACAUCGUAUGUACCGAAUCGGGUUUGGGUUUUUUUGGGUUUGGGAAAGUAUUAUGUUACGCCGUUCGGAUCUGCACUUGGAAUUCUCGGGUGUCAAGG: 0.616
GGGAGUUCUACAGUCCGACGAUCGUCCUGUGCUACACAUCGUAUGUACCGAAUCGGGGAAAAAGGGAAAAAGGGAAAAAGGAAAGUAUUAUGUUACGCCGUUCGGAUCUGCACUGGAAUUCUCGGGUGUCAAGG: -0.307
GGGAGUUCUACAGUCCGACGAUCUGGCCCUGGUGGCAUGCGGGGAGGAAGAGGUGGCCUCAUGGAUCGUGGUGGUCCCGGUGGGAUGUUCAGAGGUGGCCGUGGUGGAGACAGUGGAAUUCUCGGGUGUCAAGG: 0.0385
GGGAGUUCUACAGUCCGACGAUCAAGUCCUGUGCUACACAUCGUAUGUACCGAAUCGGGGUUUUUGGGGAGGGGAGGGGAAAGUAUUAUGUUACGCCGUUCGGAUCUGCACUUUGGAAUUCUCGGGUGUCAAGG: 0.944
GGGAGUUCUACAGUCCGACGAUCAGUCCUGUGCUACACAUCGUAUGUACCGAAUCGGCCCCCCGGCCCCCCGGCCCCCCGGAAAGUAUUAUGUUACGCCGUUCGGAUCUGCACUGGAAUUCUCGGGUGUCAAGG: 0.227
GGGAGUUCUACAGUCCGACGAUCGUCCUGUGCUACACAUCGUAUGUACCGAAUCGGUUUUUGGAAAAAAAGGUUUUUUUGGAAAGUAUUAUGUUACGCCGUUCGGAUCUGCACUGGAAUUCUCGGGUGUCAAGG: -1.03

Set 4
Cell line: HEK-293T
Effect on: pseudovirus infection
Technique: FDA-approved drug library screen
Organism: VSV pseudotyped with SARS-CoV-2 spike
Tested at: 10 µM
Time: 16 h
Relative to: vehicle-treated
Endpoint: GFP-positive cells
CC(C)(C(=O)c1cccnc1)c1cccnc1: 97%
Cn1cc[nH]c1=S: 74.9%
COc1cc2nc(N3CCN(C(=O)c4ccco4)CC3)nc(N)c2cc1OC: 104%

Further values, each from its own experiment
Cc1cc(-c2ccc(/C=C3/SC(Nc4ccc(Cl)c(C(=O)O)c4)=NC3=O)o2)c([N+](=O)[O-])cc1C — inhibition (Replicase polyprotein 1ab, main protease (rep, Severe acute respiratory syndrome coronavirus 2, UniProt P0DTD1); enzyme activity; 20 µM, with DTT): 73.3%

A few entries again (set 3):
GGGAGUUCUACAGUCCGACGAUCAGUCCUGUGCUACACAUCGUAUGUACCGAAUCGGGGAGGGGUUUUUUUGGGGUGGGGAAAGUAUUAUGUUACGCCGUUCGGAUCUGCACUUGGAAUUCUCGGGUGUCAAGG: 1.14
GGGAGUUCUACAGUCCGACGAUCCUGUGCUACACAUCGUAUGUACCGAAUCAAACCCCCCCAAACCCCCCCAAAUUUUUUUAAAAAAGUAUUAUGUUACGCCGUUCGGAUCUGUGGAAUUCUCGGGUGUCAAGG: -0.232
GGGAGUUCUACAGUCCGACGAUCAGUCCUGUGCUACACAUCGUAUGUACCGAAUCGGGUUUGGGUUUUUUUGGGUUUGGGAAAGUAUUAUGUUACGCCGUUCGGAUCUGCACUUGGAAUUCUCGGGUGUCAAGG: 0.616
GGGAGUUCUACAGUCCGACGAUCGUCCUGUGCUACACAUCGUAUGUACCGAAUCGGGGAAAAAGGGAAAAAGGGAAAAAGGAAAGUAUUAUGUUACGCCGUUCGGAUCUGCACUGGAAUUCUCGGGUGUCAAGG: -0.307
